# Measurements pooled from the literature.
# Every numbered part comes from another study and shows a few of its results, in no order. Several values in a cell are separate wells, animals, samples, runs or records.
# Chain of UniProt Q9H3Y6 (whole entry, looked up): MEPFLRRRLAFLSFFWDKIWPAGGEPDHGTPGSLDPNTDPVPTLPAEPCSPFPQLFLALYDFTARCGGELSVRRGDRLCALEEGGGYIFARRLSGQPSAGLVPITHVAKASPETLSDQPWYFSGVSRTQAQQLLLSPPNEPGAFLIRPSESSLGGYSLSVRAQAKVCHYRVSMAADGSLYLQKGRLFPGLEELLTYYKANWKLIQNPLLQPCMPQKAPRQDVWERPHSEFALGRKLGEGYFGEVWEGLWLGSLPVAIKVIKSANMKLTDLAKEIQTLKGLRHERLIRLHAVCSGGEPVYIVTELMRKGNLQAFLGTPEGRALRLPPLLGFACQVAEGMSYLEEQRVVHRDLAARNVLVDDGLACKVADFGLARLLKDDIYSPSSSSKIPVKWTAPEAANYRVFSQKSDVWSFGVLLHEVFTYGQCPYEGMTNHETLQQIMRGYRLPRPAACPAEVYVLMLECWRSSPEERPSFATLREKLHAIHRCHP
# Chain of UniProt P22607 (whole entry, looked up): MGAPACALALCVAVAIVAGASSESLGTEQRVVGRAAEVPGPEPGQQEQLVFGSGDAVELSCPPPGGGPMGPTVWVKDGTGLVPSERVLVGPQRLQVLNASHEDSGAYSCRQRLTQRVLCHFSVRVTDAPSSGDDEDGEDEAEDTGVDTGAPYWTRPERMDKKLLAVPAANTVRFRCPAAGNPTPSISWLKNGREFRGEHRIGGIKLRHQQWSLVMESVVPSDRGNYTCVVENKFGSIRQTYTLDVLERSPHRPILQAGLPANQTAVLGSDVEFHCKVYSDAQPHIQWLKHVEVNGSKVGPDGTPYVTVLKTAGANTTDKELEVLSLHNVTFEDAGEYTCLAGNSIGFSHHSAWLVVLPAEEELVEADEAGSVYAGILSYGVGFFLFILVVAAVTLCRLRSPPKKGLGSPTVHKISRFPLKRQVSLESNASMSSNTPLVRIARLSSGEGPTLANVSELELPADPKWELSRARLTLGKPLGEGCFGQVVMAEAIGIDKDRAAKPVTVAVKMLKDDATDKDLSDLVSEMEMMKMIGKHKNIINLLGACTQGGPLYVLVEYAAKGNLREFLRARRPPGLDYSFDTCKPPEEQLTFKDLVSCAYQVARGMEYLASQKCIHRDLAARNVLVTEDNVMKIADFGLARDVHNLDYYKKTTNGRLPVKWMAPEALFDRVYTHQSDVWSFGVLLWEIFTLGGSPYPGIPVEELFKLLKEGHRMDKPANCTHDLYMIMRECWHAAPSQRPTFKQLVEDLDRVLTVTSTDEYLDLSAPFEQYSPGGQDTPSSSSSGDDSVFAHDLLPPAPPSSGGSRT
# Chain of UniProt O14936 (whole entry, looked up): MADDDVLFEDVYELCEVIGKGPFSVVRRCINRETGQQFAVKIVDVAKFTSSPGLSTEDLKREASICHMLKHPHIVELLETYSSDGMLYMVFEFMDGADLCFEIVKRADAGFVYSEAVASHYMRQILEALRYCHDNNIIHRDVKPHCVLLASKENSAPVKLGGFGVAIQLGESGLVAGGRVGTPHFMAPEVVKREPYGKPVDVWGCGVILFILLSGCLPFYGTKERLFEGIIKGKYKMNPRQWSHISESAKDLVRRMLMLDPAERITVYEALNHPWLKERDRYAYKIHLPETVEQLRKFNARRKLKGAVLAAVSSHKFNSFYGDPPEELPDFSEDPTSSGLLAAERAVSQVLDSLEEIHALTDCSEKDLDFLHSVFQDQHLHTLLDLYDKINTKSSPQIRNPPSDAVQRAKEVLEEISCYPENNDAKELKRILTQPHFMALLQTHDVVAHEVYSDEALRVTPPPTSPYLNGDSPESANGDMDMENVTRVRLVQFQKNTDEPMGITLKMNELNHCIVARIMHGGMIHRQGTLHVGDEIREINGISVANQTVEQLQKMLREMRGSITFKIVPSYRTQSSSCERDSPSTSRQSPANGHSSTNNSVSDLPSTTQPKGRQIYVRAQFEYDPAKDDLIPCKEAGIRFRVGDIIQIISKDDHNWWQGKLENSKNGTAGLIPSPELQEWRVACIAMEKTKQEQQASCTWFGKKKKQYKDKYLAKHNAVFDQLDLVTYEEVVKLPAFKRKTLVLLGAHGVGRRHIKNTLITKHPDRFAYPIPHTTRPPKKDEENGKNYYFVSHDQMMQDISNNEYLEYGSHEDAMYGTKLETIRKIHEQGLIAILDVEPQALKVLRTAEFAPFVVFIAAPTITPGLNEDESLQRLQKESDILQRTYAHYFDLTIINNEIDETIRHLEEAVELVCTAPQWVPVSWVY
# Chain of UniProt Q96PF2 (whole entry, looked up): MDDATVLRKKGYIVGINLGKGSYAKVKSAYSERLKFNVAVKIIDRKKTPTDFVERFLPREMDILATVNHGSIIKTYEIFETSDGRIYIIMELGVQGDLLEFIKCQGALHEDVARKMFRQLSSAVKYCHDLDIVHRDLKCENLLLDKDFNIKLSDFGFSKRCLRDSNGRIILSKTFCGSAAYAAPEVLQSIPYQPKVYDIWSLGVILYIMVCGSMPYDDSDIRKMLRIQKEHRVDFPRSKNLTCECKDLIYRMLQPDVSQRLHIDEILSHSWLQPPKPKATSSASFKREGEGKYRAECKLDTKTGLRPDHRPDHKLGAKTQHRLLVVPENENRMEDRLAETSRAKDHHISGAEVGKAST
# Chain of UniProt Q8NE63 (whole entry, looked up): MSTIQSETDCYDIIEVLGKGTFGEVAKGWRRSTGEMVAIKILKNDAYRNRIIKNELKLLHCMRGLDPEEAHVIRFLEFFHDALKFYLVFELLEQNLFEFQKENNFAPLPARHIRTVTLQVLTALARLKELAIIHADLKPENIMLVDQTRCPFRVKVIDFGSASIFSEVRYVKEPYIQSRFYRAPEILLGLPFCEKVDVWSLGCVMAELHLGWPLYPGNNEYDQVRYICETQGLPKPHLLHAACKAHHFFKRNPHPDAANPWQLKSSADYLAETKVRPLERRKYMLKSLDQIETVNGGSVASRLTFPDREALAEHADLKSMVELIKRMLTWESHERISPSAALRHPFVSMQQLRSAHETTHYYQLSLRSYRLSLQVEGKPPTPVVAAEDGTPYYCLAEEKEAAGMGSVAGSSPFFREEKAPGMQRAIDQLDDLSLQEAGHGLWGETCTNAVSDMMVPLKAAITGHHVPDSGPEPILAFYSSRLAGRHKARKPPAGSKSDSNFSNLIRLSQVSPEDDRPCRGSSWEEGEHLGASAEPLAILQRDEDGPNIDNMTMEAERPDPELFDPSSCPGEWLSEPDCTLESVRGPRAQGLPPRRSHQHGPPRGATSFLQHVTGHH
# Chain of UniProt Q8IVW4 (whole entry, looked up): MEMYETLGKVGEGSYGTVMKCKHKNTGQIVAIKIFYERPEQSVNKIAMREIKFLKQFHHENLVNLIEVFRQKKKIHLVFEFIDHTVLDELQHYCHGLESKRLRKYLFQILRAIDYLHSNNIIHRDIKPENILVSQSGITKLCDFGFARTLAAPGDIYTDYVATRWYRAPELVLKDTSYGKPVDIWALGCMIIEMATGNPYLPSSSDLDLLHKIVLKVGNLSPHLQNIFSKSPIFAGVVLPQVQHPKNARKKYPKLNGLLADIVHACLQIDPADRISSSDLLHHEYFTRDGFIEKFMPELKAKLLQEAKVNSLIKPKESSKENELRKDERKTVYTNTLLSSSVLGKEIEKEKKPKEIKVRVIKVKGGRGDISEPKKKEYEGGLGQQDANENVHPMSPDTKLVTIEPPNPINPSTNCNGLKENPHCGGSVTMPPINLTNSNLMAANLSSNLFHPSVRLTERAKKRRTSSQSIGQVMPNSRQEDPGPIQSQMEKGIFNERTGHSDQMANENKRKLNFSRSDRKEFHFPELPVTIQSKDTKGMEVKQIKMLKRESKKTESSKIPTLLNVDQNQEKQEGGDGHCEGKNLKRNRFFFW
# Chain of UniProt P36894 (whole entry, looked up): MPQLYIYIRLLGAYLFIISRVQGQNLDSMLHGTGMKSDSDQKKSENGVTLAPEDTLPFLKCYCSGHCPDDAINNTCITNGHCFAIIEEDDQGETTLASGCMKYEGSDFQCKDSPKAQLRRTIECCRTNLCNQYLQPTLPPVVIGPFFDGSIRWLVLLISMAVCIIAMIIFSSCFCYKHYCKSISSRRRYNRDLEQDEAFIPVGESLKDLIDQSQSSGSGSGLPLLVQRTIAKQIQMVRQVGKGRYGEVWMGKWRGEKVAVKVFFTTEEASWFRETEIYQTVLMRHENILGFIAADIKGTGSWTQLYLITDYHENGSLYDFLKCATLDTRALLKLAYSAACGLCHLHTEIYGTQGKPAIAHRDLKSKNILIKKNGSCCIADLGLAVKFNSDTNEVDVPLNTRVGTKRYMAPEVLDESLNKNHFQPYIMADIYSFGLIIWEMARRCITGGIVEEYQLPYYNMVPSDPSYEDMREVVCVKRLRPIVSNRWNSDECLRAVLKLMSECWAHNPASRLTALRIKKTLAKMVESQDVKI
# Chain of UniProt Q16816 (whole entry, looked up): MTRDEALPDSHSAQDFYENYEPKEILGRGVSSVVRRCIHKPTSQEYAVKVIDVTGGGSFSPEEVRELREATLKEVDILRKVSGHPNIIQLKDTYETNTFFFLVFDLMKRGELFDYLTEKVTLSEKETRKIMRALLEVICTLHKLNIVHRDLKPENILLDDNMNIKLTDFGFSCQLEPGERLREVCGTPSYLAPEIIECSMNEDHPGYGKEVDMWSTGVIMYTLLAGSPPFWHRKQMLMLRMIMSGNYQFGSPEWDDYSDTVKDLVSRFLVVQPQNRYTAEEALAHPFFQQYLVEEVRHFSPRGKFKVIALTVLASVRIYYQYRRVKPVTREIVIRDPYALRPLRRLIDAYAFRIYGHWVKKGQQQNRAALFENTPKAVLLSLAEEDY
# Chain of UniProt O75716 (whole entry, looked up): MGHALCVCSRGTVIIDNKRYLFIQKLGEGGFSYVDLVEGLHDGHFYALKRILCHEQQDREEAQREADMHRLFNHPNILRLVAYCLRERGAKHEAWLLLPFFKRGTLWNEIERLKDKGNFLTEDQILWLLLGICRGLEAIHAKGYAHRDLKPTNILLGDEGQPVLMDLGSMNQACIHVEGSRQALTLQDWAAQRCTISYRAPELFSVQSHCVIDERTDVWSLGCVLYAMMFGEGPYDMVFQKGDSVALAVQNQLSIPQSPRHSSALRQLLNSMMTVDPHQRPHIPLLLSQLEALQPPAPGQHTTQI

# Set 1
# Host: human
# Sample: microsomes or S9
# Concentration: 2 µM
# Time: 0.5 h
SMILES,remaining compound [%]
Cc1ccc(C(=O)Cn2nc3n(Cc4ccccc4)c(=O)c4ccc(C(=O)NC(C)C)cc4n3c2=O)cc1,> 99
CCOC(=O)c1cc2cc(NC(=N)N)ccc2s1,3.82
O=C1OCc2c(-c3ccccc3)sc(-c3ccc4c(c3)OCO4)c21,53.7
COc1cc(=O)[nH]cc1C(=O)N1CCC(OCC2CCCC2)CC1,71
CCOC(C#Cc1cncc(I)c1N)OCC,5.33
CN(C)CCCOc1ccc(CN2CCC(NC(=O)c3ccco3)CC2)cc1,63.5

# Set 2
# Compound: Nc1nccc(-c2c(-c3ccc(F)cc3)ncn2C2CCNCC2)n1
# Observed: enzyme activity
# Mode: inhibitor
# Concentration: 0.5 µM
# Relative to: control
target,remaining activity [%]
"AXL (Homo sapiens, UniProt P30530)",102
"HIPK4 (Homo sapiens, UniProt Q8NE63)",96.6
"STK16 (Homo sapiens, UniProt O75716)",108
"SRMS (Homo sapiens, UniProt Q9H3Y6)",97.5
"PHKG1 (Homo sapiens, UniProt Q16816)",98.3
"PRKACG (Homo sapiens, UniProt P22612)",105
"TSSK2 (Homo sapiens, UniProt Q96PF2)",100

# Set 3
# SMILES: Cc1c[nH]c2nccc(Oc3c(F)cc(Nc4cc(Cl)nc(N)n4)cc3F)c12
# Method: competition with immobilised ligand
# Concentration: 0.1 µM
target,observed,remaining binding [%]
"CAMK1D (Homo sapiens, UniProt Q8IU85)",cell-free assay,94
"KIT (Homo sapiens, UniProt P10721)",cell-free assay,75
"LRRK2 (Homo sapiens, UniProt Q5S007)",cell-free assay,100
"SRMS (Homo sapiens, UniProt Q9H3Y6)",cell-free assay,100
"TEC (Homo sapiens, UniProt P42680)",cell-free assay,86
"FGFR3 (Homo sapiens, UniProt P22607)",cell-free assay,100
"CDK7 (Homo sapiens, UniProt P50613)",cell-free assay,91
"PIP4K2B (Homo sapiens, UniProt P78356)",cell-free assay,90
"BMPR1A (Homo sapiens, UniProt P36894)",binding,85
"CASK (Homo sapiens, UniProt O14936)",cell-free assay,98
"CDKL3 (Homo sapiens, UniProt Q8IVW4)",cell-free assay,100
"PI4KB (Homo sapiens, UniProt Q9UBF8)",cell-free assay,97
"EPHB3 (Homo sapiens, UniProt P54753)",cell-free assay,100

# Set 4
# Structure (SMILES): CC(C)n1cnc(-c2ccc(F)cc2)c1-c1ncc(C(=O)Nc2ccc(N3CCN(C)CC3)cc2)[nH]1
# Method: Phase 2a trial
# Host: human, idiopathic pulmonary fibrosis
refers to,dose,notes,patients with adverse event [%]
hyperuricaemia,60 mg once daily,grade 5,0
"respiratory, thoracic, mediastinal disorders",all compound arms,grade 5,0
blood fibrinogen increased,30 mg once daily,grade 2,0
hypercholesterolaemia,all compound arms total,grade 4,0

# Single results of other studies
Compound,cell line,method,concentration,time,relative to,measurement,result
CN1CC[C@H](c2c(O)cc(O)c3c(=O)cc(-c4ccccc4Cl)oc23)[C@H](O)C1,HuT78,trypan blue exclusion,0.05 µM,48 h,untreated,viability,87.6% and 89.2%

# A few entries again (set 4):
refers to,dose,notes,patients with adverse event [%]
"respiratory, thoracic, mediastinal disorders",all compound arms,grade 5,0
hypercholesterolaemia,all compound arms total,grade 4,0
hyperuricaemia,60 mg once daily,grade 5,0
blood fibrinogen increased,30 mg once daily,grade 2,0
